Assay results from different studies.
Each numbered part is a random draw from the data of one study; scales do not carry over between parts. Changes are numbered by the printed parent chain.

Series 1 — method: universal PBM; molecule type: double-stranded DNA, one strand shown; matrix: in vitro; concentration: 600 nM; reading: higher = stronger binding; measurement: E-score
Target: Sal-like protein 4, full length isoform A (SALL4, Homo sapiens, UniProt Q9UJQ4, residues 1-1053)
UniProt Q9UJQ4, sequence (whole entry, looked up): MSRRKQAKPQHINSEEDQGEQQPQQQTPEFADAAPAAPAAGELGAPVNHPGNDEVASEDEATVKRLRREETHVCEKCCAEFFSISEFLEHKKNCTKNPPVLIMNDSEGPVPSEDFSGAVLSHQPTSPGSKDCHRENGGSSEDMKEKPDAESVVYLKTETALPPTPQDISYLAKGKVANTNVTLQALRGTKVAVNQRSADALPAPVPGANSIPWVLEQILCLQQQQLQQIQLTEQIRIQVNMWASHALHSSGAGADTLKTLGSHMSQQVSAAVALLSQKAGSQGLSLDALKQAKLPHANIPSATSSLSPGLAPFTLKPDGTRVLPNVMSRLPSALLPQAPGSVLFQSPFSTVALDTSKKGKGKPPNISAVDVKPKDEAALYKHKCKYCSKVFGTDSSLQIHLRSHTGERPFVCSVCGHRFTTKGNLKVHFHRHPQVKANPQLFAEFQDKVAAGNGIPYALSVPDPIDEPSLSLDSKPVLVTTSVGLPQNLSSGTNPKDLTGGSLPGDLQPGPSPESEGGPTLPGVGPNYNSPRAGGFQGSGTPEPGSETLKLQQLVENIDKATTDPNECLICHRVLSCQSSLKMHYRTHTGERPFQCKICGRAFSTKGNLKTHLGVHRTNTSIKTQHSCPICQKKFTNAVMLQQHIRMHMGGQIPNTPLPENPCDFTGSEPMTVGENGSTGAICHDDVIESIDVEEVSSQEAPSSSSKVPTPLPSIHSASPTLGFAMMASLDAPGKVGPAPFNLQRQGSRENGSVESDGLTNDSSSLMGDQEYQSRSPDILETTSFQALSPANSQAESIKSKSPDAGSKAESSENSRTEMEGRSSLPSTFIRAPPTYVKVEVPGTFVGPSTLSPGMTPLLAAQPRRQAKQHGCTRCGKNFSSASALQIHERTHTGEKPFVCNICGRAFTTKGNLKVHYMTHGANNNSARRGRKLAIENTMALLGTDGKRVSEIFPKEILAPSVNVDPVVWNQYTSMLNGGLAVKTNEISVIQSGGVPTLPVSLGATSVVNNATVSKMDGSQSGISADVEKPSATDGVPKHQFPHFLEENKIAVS
Setting: 8-mer, flanks averaged, mean of replicates
ACCTTGCA: -0.154
CACATAGG: -0.012
ATTGATCC: 0.0908
TATGTCAA: 0.344
CACTTATC: 0.174
GATAAATC: 0.184
ATAAGTGA: 0.24
CCGACATC: -0.109
AAACACAG: 0.188
CACACAGC: -0.0749
GGTTGTGA: 0.0124
ATGTCGAC: 0.048
GCTCCCTA: -0.211
ACATCGCT: 0.091

Series 2 — target: CCNA1, cyclin fold, Cln2 fusion (human); method: yeast growth competition, sequencing; matrix: yeast; setting: weak parent motif; relative to: not given; reading: higher = stronger binding; measurement: normalised enrichment score
Starting sequence: E2F1 docking peptide (human); PPVKRRLDLETDH; partner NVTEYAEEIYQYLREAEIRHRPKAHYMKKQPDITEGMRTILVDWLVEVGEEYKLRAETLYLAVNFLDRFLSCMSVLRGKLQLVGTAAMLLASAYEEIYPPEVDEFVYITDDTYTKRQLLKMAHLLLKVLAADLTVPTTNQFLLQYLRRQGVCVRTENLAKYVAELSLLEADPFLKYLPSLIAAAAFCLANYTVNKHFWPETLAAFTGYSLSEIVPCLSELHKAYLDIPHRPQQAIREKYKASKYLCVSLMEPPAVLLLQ
PYVKRRLDLETDH [P2Y]: -0.185
PPVKRRLDLETAH [D12A]: 0.744
PPHKRRLDLETDH [V3H]: 0.119
PPVKRRLDLETDA [H13A]: 0.638
PPVSRRLDLETDH [K4S]: 0.368
PPVKRREDLETDH [L7E]: 0.127
PPVKRRLDLENDH [T11N]: 0.136
PPVKRRLQLETDH [D8Q]: 0.599
PPVKRRLDLTTDH [E10T]: 0.625
PPVCRRLDLETDH [K4C]: 0.558
MPVKRRLDLETDH [P1M]: 0.696
PPVKRRLLLETDH [D8L]: 0.431
PPVFRRLDLETDH [K4F]: 0.286
PPVKRRLDLETYH [D12Y]: 0.79
PPVKRRLDLEIDH [T11I]: 0.181
PPVKRRLDLEDDH [T11D]: 0.241
PPVKGRLDLETDH [R5G]: 0.376
PPVKRRLDLEMDH [T11M]: 0.0931
PPVKRRLDLETFH [D12F]: 0.97
PPVKRRLDLESDH [T11S]: 0.626
PPVKRRLCLETDH [D8C]: 0.215
PPVKRRLDLETRH [D12R]: 0.376
PPVKRRLDLATDH [E10A]: 0.715
PPVKRRLDLEEDH [T11E]: 0.342
PPVKRRLDLETDQ [H13Q]: 0.627

Series 3 — method: RNA Bind-n-Seq; molecule type: RNA; matrix: in vitro; concentration: 200 nM; setting: whole 134-nt RNA, ends assumed; added: 150 mM KCl; relative to: input library; reading: higher = stronger binding; measurement: log2 enrichment
Target: Ras GTPase-activating protein-binding protein 1, full length (G3BP1, Homo sapiens, UniProt Q13283)
UniProt Q13283, sequence (whole entry, looked up): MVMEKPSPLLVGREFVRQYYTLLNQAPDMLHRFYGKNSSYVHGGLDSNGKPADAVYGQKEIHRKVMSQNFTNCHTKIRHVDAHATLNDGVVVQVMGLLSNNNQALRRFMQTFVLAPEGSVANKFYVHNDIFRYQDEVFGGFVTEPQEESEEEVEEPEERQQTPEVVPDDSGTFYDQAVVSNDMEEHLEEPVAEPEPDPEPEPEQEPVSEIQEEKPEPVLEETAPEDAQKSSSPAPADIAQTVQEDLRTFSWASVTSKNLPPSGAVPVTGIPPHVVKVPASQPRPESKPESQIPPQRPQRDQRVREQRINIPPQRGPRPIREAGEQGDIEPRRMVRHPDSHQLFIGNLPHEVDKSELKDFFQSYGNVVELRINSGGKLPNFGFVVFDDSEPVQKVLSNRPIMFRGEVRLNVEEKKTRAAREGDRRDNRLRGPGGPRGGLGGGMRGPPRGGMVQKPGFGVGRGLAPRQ
Constant ends, left off below: GGGAGUUCUACAGUCCGACGAUC … UGGAAUUCUCGGGUGUCAAGG
UGGCCCUGGUGGCAUGCGGGGAGGAAGAGGUGGCCUCAUGGAUCGUGGUGGUCCCGGUGGAAUGUUCAGAGGUGGCCGUGGUGGAGACCG: 0.122
UAACUUUAGAGGAGGAUCUGAUGGAUAUGGCAGUGGACGUGGAUUUGGGGAUGGCUAUAAUGGGUAAGGAGGAGGACCUGGAGGUGGCAA: 0.414
GUCCUGUGCUACACAUCGUAUGUACCGAAUCGGGAAAAAGGGAAAAAGGGGAAAAAGGAAAGUAUUAUGUUACGCCGUUCGGAUCUGCAC: -0.506
CACAGACAACACGCACCCACACAGACACAGAGGGAAGGGGUUGGGAUGGGGACAGGGUGCACAGCAGGCCGGGGUAGGACCCCAGCCCCU: 1.93
UGCUGGCAGCCAAGCAGCAGCAGGAGAUGCUGGCAGCCAAGCGGCAGCAGGAGCUGGAGCAGCAGCGGCAGCGGGAGCAGCAGCGGCAGG: -0.871
AGUCCUGUGCUACACAUCGUAUGUACCGAAUCGGGGUGGGGAAAAAAAGGGGAGGGGAAAGUAUUAUGUUACGCCGUUCGGAUCUGCACU: 0.754
CCUGUGCUACACAUCGUAUGUACCGAAUCGGGAAAAAGGGUUUUUUUGGGUUUUUUUGGGAAAGUAUUAUGUUACGCCGUUCGGAUCUGC: -1.04
UCAAGUCCUGUGCUACACAUCGUAUGUACCGAAUCGGUUUUUUUGGAAAGGUGGAAAGUAUUAUGUUACGCCGUUCGGAUCUGCACUUCC: -0.81
UUUUUUGUAGUAGGGAGAUCCUUGAUCAUCAGGAUGGUAAUGUAGAAGAUGAUGGGCUUACAGGACUCCUAAGGCUUGCAACAAGUGUUG: 0.759

Series 4 — target: TEF, bZIP domain (human); method: DHFR protein complementation; matrix: yeast; relative to: wild-type JUN-FOS pair; reading: higher = stronger binding; measurement: binding fitness
Setting: single substitutions, most at no-binding floor
Starting sequence: JUN, bZIP domain (human); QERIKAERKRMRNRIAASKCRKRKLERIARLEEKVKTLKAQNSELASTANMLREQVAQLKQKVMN; partner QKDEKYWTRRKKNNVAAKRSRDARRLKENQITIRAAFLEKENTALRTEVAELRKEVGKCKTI
L38P: -1.44 natural log
A57W: -1.48 natural log
K36R: -1.47 natural log
T48E: -1.54 natural log
E44S: -1.39 natural log
K36V: -1.41 natural log
K36L: -1.44 natural log
L38G: -1.52 natural log
Q41T: -1.56 natural log
L59W: -1.51 natural log
S47E: -1.38 natural log
E44F: -1.27 natural log
V56N: -1.56 natural log
E33L: -1.38 natural log
R53W: -1.56 natural log

Other studies, line by line
PhoQ, residues 284 288 289 292 302 303 NSMLDC
fold induction (PhoP, residues 12 14 15 18 19 NHTVL (Escherichia coli, UniProt P23836); Sort-seq, refers to: YFP reporter; E. coli; PhoQ-PhoP variant library, added: 10 µM Mg2+; relative to: high Mg2+ state, higher = stronger signaling): 14.5
